# Measurements collected from several papers.
# Protocols differ between the studies behind these lines. Values joined by “and” are separate records of one study, mostly repeats; a detail may differ. ± gives the spread as reported.
Compound,test,system,conditions,scale,endpoint,result
C[C@H](CS)C(=O)N1CCC[C@H]1C(=O)O,,"male Hartley guinea pig, anaesthetized","intravenous, 3 mg/kg, baseline before infusion",,QTc interval,348 ± 0.9 ms
N#Cc1ccc2c(c1)[C@H]1CCCN(C(=O)c3ccc4[nH]cnc4c3)[C@H]1C2,,human,"160 mg, end of trial",relative to: baseline,ACTH level change,0.4 pmol/L
NC[C@@]1(CC(=O)O)[C@@H]2CC[C@H]3C[C@@H]2[C@@H]1C3,,"human, severe renal impairment, plasma",geometric mean,,unbound apparent clearance,3.34 L/h
COc1cc(C(=O)N2CCC3(CC2)CC(=O)c2c(cnn2C(C)C)C3)cc(-c2ccc(C(=O)O)cc2)n1,measured: HDL cholesterol,"human, fasting serum","1 mg every 12 h, day 13, adjusted geometric mean",relative to: baseline and placebo,placebo-adjusted change from baseline,-6.1%
CCOC(=O)/C(C#N)=C(\O)c1ccc(NC(=O)c2cccs2)cc1,haemolysis,sheep erythrocytes,"1 h, pH 7.5",,HC50,> 128 µg/mL
CN1C[C@H](COc2nccc3c(NCc4ccco4)cc(Cl)nc23)OC1=O,,"rabbit, isolated Langendorff heart",dose not given,,effect on LVEDP,negative
COCCOc1cnc2ccn([C@H](C)c3nnc4c(F)cc(-c5cnn(C)c5)cn34)c(=O)c2c1,,"patients, plasma","oral, 50 mg once daily, day 1",,Cmax,700 ng/mL
CC(C)(C(=O)N1CCOc2c(C#N)cncc2C1)C(F)F,measured: ALT increased,human,"oral, 20 mg once daily, 14 days, multiple ascending dose",,subjects with adverse event,0%
O=C(O)CC[C@H](NC(=O)N[C@@H](CCCCNC(=O)[C@H](Cc1ccc2ccccc2c1)NC(=O)[C@H]1CC[C@H](CNC(=O)CN2CCN(CC(=O)O)CCN(CC(=O)O)CCN(CC(=O)O)CC2)CC1)C(=O)O)C(=O)O,,"male BALB/c nude mice, LS174T-PSMA xenografts, blood","intravenous, 0.3 nmol, 2 h, radiolabelled (111In or 99mTc)",relative to: tumour over blood,tumour-to-tissue ratio,424 ± 174
Nc1ccn([C@@H]2O[C@H](CO)[C@@H](O)C2(F)F)c(=O)n1,measured: dFdU,"human, plasma","intravenous, 1000 mg/m^2, together with: after paricalcitol",,"Tmax, median",1.25 h
Cn1ncc(S(=O)(=O)NC2CC(C)(C)Oc3ccc(F)cc32)c1C(=O)O (stereo not drawn),"colloidal aggregate formation, dynamic light scattering",50 mM potassium phosphate buffer,"200 µM, pH 7.0, 1% DMSO",higher = more aggregation,DLS scattered light intensity,2.3e+08 counts/s
CC(=O)N[C@@H](CCCNC(=N)N)C(=O)N[C@H]1CSSC[C@@H](C(N)=O)NC(=O)[C@H](Cc2c[nH]c3ccccc23)NC(=O)[C@H](CCCNC(=N)N)NC(=O)[C@@H](Cc2ccccc2)NC(=O)[C@H](Cc2c[nH]cn2)NC(=O)[C@@H](C)NC1=O,,telemetered cynomolgus monkeys,"subcutaneous, 3 mg/kg",,body temperature,decreased
O=C(O)CCCCCCCCCCCCCCC(=O)O,,"human, plasma",endogenous baseline diurnal,,daily mean concentration,169 ± 23 nM
O=C(Nc1ccc(OC(F)(F)Cl)cc1)c1cnc(N2CC[C@@H](O)C2)c(-c2ccn[nH]2)c1,"per laboratory record, measured: lipase increase",human patients,"oral, dose not given",,grade ≥3 event rate,0.3%
Cl.[2H]C([2H])([2H])CC(=O)c1cnc(NC(=O)C2CC2)cc1Nc1cccc(-c2ncn(C([2H])([2H])[2H])n2)c1OC,,"human, fasted, multiple dose","oral, 20 mg twice daily, tablet, day 14, geometric mean",,Ctrough,109 ng/mL
O=c1[nH]c(=O)n([C@@H]2O[C@H](CO)[C@@H](O)[C@@H]2F)cc1CCCC[18F],,"nude mice, RG2 tumour, blood","intravenous, dose not given, 2 h, co-injection",,blood concentration,0.11 ± 0.02 %ID/g
[18F]c1ccc(-c2ccc3c(c2)[nH]c2ccncc23)cn1,ex vivo biodistribution,"B6SJL mouse, normal, pancreas","intravenous, 30 min",,SUV,1.38 ± 0.515
Cc1ccc(Sc2ccccc2N2CCNCC2)c(C)c1,measured: thermal burn,healthy adult men,"oral, 20 mg daily, 12 days",,participants with TEAE,0%
NC1(C(=O)N[C@@H](CCO)c2ccc(Cl)cc2)CCN(c2nc[nH]c3nccc2-3)CC1,,metastatic CRPC patients,"320 mg b.i.d., any grade, treatment-related, together with: enzalutamide 160 mg daily",,incidence of white blood cell decreased,0%
Cc1cc(-c2nnc(N)nc2-c2ccc(F)cc2)cc(Cl)n1,"measured: decreased appetite, any grade",post-IO NSCLC patients,"oral, 100 mg once daily",,incidence of treatment-related AE,11.8%
O=S(=O)(Nc1ccc(-c2cnco2)cc1)c1cccc(Cl)c1O,"colloidal aggregate formation, dynamic light scattering",50 mM potassium phosphate buffer,"200 µM, pH 7.0, 1% DMSO",higher = more aggregation,DLS scattered light intensity,702000 counts/s
O=C(c1cccnc1-c1ccncc1)N1CCC(O)(Cc2ccccc2)CC1,continuous Holter ECG,healthy Japanese adults,"oral, 1200 mg, 12 h postdose, least-squares mean",,placebo-corrected change in heart rate,-4.5 bpm
O=C(Nc1cnccc1Cl)N1CCN(Cc2ccc3c(c2)OC(F)(F)O3)CC1,multiple ascending dose,young women,"100 mg, treatment-emergent adverse events",,alanine aminotransferase increased,0%
O=C1Cc2cc(CCN3CCN(c4nsc5ccccc45)CC3)c(Cl)cc2N1,,"male Hartley guinea pig, anaesthetized","intravenous infusion, 1 mg/kg, 10 min infusion, post-infusion",,QTc interval,403 ± 0.4 ms
COc1ccc2c(c1)CN(C(=O)CCN1CCC(Cc3ccccc3)CC1)CC[S@@+]2[O-],,"healthy male volunteers, urine","intravenous, 0.4 mg/kg",relative to: dose,urinary excretion,10.3 ± 2.39%
O=S(=O)(Nc1ccc(F)c2cnccc12)c1cc(Cl)cc(Cl)c1O,"colloidal aggregate formation, dynamic light scattering",50 mM potassium phosphate buffer,"200 µM, pH 7.0, 1% DMSO",higher = more aggregation,DLS scattered light intensity,760000 counts/s
O=C(O)CSc1nnc(Br)n1-c1ccc(C2CC2)c2ccccc12,,"KM mouse, chronic hyperuricaemia model","dose not given, day 16",,body weight,37.6 g and 29 g and 30 g and 34.4 g and 34 g and 35.4 g
O=C1NCCc2nc(OCc3cccc(F)c3)ccc21,measured: Lacrimation,Sprague-Dawley rat male,"oral, 100 mg/kg, 0 min","relative to: baseline, direction not given",Irwin test score,0
CNC(=O)c1cccc(-c2ccc(O[C@H]3O[C@H](CO)[C@@H](O)[C@H](O)[C@@H]3O)c(C)c2)c1,,"male Sprague-Dawley rat, plasma","oral, 10 mg/kg, group mean",,terminal half-life,2.85 h
O=C(O)CCC(=O)O.[2H]C([2H])([2H])Oc1cc(C)c2[nH]ccc2c1CN1CC[C@@H](C2CC2)C[C@H]1c1ccc(C(=O)O)cc1,multiple ascending dose,healthy Chinese subjects,50 mg twice daily,,subjects with TEAE Constipation,0%
Cc1ccc([C@@H]2O[C@H](CO)[C@@H](O)[C@H](O)[C@H]2O)cc1Cc1ccc(-c2ccc(F)cc2)s1,,Japanese type 2 diabetes patients,"25 mg, day 18, 24 h urine collection",relative to: baseline,urinary chloride excretion change,-44.3 mEq
O=C1c2ccncc2C(=O)c2c1[nH]c1ccccc21,,"Sprague-Dawley rat female, plasma","intravenous, 1 mg/kg",,terminal half-life,3.4 ± 0.7 h
CNC(=O)c1cc(Oc2ccc(NC(=O)N(c3ccc(Cl)c(C(F)(F)F)c3)[C@@H]3O[C@H](C(=O)O)[C@@H](O)[C@H](O)[C@H]3O)cc2)ccn1,,"mouse, Oatp1b2 knockout, plasma","oral, 10 mg/kg, without rifampin, geometric mean",,AUC(0-7.5 h),31.4 µg·h/mL
CCCCc1ccc(-c2ccc(C#N)cc2)cc1,measured: compound,"human pregnant women, female fetuses, maternal serum","dose not given, paired maternal-cord samples, mean",,concentration,0.28 ng/mL
CCN1/C(=C/C(C)=O)Sc2ccc(F)cc21,,cynomolgus monkey,"oral, 10 mg/kg, 6 h post-dose",relative to: pre-dose,systolic blood pressure change,113 ± 10.1%
CC(C)[C@H](N)C(=O)NCCCS(=O)(=O)O,,"human both sexes, plasma","oral, 340 mg BID days 8-13, QD day 14, day 14, fed capsule",,AUC(0-12),13800 ng·h/mL
C=CC(=O)Nc1cc(Nc2nccc(-c3cn(C)c4ccccc34)n2)c(OC)cc1N(C)CCN(C)C,,human plasma,"24 h, storage stability, LLOQ sample",,recovery,53.5%
C[C@@H](N)C1CCN(S(=O)(=O)c2cccc3cnccc23)CC1,,healthy volunteers,"25 mg and 250 mg combined, fasted",,participants with serious TEAEs,0%
COc1ccc2c(=O)n(C)c(-c3ccccc3)nc2c1,,"male Sprague-Dawley rat, large intestine","oral, 30 mg/kg, 4 h",,tissue concentration,42500 ng/g
CC(C)C[C@H](NC(=O)CNC(=O)c1cc(Cl)ccc1Cl)B(O)O,measured: Dysgeusia,human newly diagnosed multiple myeloma,"oral, dose not given, maintenance, grade 3, onset cycle 17 or later",,treatment-emergent adverse events,0%
C=C(NC(=O)c1nccc(OC)c1O)C(=O)O[C@@H](C)[C@H](OC(=O)C(C)C)[C@@H](Cc1ccccc1)C(=O)O,soil adsorption,clay loam soil,"pH 6.8, organic carbon 0.5 %",,Freundlich coefficient KF,98.6 mL/g
COc1cccc2c(N3CCC(CCP(=O)(O)O)CC3)ncnc12,,"mouse, breast cancer, serum, tumour, organs","50 mg/kg, 7 days",relative to: vehicle,pyrophosphate level,no effect
Cc1ccc2ncccc2c1NS(=O)(=O)c1cccc(Cl)c1O,"colloidal aggregate formation, dynamic light scattering",50 mM potassium phosphate buffer,"200 µM, pH 7.0, 1% DMSO",higher = more aggregation,DLS scattered light intensity,325000 counts/s
CCOc1c([C@H](C)n2nc(C)c3c(N)ncnc32)cc(Cl)c(F)c1[C@@H]1CNC(=O)C1,,"patients, monotherapy","oral, 20 mg once daily, cycle 1 day 15",,half-life geometric mean,520 min
CCc1cc(C(=O)NC)c2nccc(N3CCc4c(cc(Cn5ccnc5)cc4-c4cn(C)nc4C(F)(F)F)C3=O)c2c1,,Sprague Dawley rat,"oral, 50 mg/kg once daily, 7 days",relative to: vehicle,kidney weight change,6.18%
Cc1c(-c2ccc(N3CCc4cccc(C(=O)Nc5nc6ccccc6s5)c4C3)nc2C(=O)O)cnn1CC12CC3(C)CC(C)(C1)CC(OCCNCC[C@H](O)CO)(C3)C2,,anesthetized male beagle dogs,"intravenous infusion, 0.3 mg/kg/min, 15 min",relative to: vehicle,PR interval change,-6 ms
Cc1noc(C)c1Cn1cc(N2C(=O)CN(Cc3cccc(O)c3)C2=O)cn1,,pooled rat liver microsomes Sprague-Dawley,"50 µM, 10 min, pH 7.4",,remaining parent,95 % peak area
C=CCN1CC(=O)N2[C@@H](Cc3ccc(O)cc3F)C(=O)N(Cc3cccc(N4CC(N5CCN(CC)CC5)C4)n3)C[C@@H]2N1C(=O)NCc1ccccc1,,advanced solid tumour patients,"oral, 160 mg twice daily, grade ≥3, dose-escalation",,treatment-related nausea,0%
CCn1cc(C(=O)N2CCOCC2)c(=O)c2cc(NC3Cc4ccccc4C3)cnc21,,"human, fed","oral suspension, 300 mg/day twice daily, day 8, arithmetic mean",,AUC(0-12),9900 ng·h/mL
Cc1cc(-c2nccc3c2ccn3CC(=O)Nc2ccc(-c3cnccn3)cn2)ccn1,,human,"20 mg once daily, multiple ascending dose",,subjects with Epistaxis adverse event,0%
COc1cc(NS(=O)(=O)c2cc(Cl)cc(Cl)c2O)c(F)cc1C#N,"colloidal aggregate formation, dynamic light scattering",50 mM potassium phosphate buffer,"200 µM, pH 7.0, 1% DMSO",higher = more aggregation,DLS scattered light intensity,1.07e+06 counts/s
Cn1c(C(F)(F)F)cc(=O)n(-c2cc(Oc3cccnc3OCC(=O)O)c(Cl)cc2F)c1=O,,"Crl:CD(SD) rats, male, plasma","oral diet, 800 ppm in diet, day 1, 90-day toxicity study",,AUC(0-24 h),20900 ng·h/mL
CSc1nc2nnnc(O)c2s1,haemolysis,sheep erythrocytes,"1 h, pH 7.5",,HC50,> 128 µg/mL
CO/N=C(\C(=O)N[C@@H]1C(=O)N2C(C(=O)O)=C(COC(C)=O)CS[C@H]12)c1csc(N)n1,,human whole blood,"concentration not given, 8 h, 4 °C",,deviation from nominal concentration,4.1%
O=C(Nc1nc2cccc(-c3ccc(CN4CCS(=O)(=O)CC4)cc3)n2n1)C1CC1,measured: animal bite,human rheumatoid arthritis patients,"oral, 75 mg once daily, 4 weeks, regardless of relatedness",,treatment-emergent adverse events,0%
COc1ccc([C@@H](O)c2cc(-c3ncnc4cc(N5CCOCC5)ccc34)c(F)cc2Cl)nn1,,locally advanced rectal cancer patients,"100 mg, together with: capecitabine and radiotherapy",,asthenia TEAE incidence,0%
Cc1ccc(C(=O)N(CCCN)C(c2nc3snc(C)c3c(=O)n2Cc2ccccc2)C(C)C)cc1 (stereo not drawn),,"human patients, plasma","intravenous, 7 mg/day, day 3 of induction course, geometric mean",,plasma concentration at 24 h,8 ng/mL

# For quick reference, copied from above:
Compound,test,system,conditions,scale,endpoint,result
Cc1ccc2ncccc2c1NS(=O)(=O)c1cccc(Cl)c1O,"colloidal aggregate formation, dynamic light scattering",50 mM potassium phosphate buffer,"200 µM, pH 7.0, 1% DMSO",higher = more aggregation,DLS scattered light intensity,325000 counts/s
CCOc1c([C@H](C)n2nc(C)c3c(N)ncnc32)cc(Cl)c(F)c1[C@@H]1CNC(=O)C1,,"patients, monotherapy","oral, 20 mg once daily, cycle 1 day 15",,half-life geometric mean,520 min
CCc1cc(C(=O)NC)c2nccc(N3CCc4c(cc(Cn5ccnc5)cc4-c4cn(C)nc4C(F)(F)F)C3=O)c2c1,,Sprague Dawley rat,"oral, 50 mg/kg once daily, 7 days",relative to: vehicle,kidney weight change,6.18%
Cc1c(-c2ccc(N3CCc4cccc(C(=O)Nc5nc6ccccc6s5)c4C3)nc2C(=O)O)cnn1CC12CC3(C)CC(C)(C1)CC(OCCNCC[C@H](O)CO)(C3)C2,,anesthetized male beagle dogs,"intravenous infusion, 0.3 mg/kg/min, 15 min",relative to: vehicle,PR interval change,-6 ms
Cc1noc(C)c1Cn1cc(N2C(=O)CN(Cc3cccc(O)c3)C2=O)cn1,,pooled rat liver microsomes Sprague-Dawley,"50 µM, 10 min, pH 7.4",,remaining parent,95 % peak area
C=CCN1CC(=O)N2[C@@H](Cc3ccc(O)cc3F)C(=O)N(Cc3cccc(N4CC(N5CCN(CC)CC5)C4)n3)C[C@@H]2N1C(=O)NCc1ccccc1,,advanced solid tumour patients,"oral, 160 mg twice daily, grade ≥3, dose-escalation",,treatment-related nausea,0%
